Assay results from different studies.
Lines come from different studies, so protocols differ. “And” joins repeats or separate records; there may be more than shown.
Cell line: UACC-257

C#C[C@@]1(O)[C@@H](CO)O[C@@H](n2cc(Cl)c3c(N)ncnc32)[C@@H]1O
TGI (SRB; NCI-60 screen): 63.8 µM and > 100 µM

CCCN1CCN(c2ccc3[nH]c(-c4ccc5[nH]c(-c6ccc(OCC)c(OCC)c6)nc5c4)nc3c2)CC1
growth percent (SRB; 10 µM, 48 h): -29.7%

Cc1cc(=O)[nH]c(=O)n1Cc1cn(-c2cc3ccccc3oc2=O)nn1
growth percentage (NCI60 single-dose screen; 10 µM): 101%

CCCCN1CCN(c2ccc3[nH]c(-c4ccc5[nH]c(-c6ccc(C(F)(F)F)cc6)nc5c4)nc3c2)CC1
growth percent (SRB; 10 µM, 48 h): -16.1%

Cc1cc(C)n(C(=S)[S][Au][PH](CCCCCC[PH]([Au][S]C(=S)n2nc(C)cc2C)(c2ccccc2)c2ccccc2)(c2ccccc2)c2ccccc2)n1
log10 TGI (cell growth, NCI-60 screen; melanoma): > -4

O=c1ccn(Cc2cn(-c3cc4ccccc4oc3=O)nn2)c(=O)[nH]1
growth percentage (NCI60 single-dose screen; 10 µM): 104%

CCOc1ccc(-c2nc3cc(-c4nc5cc(N6CCN(C)CC6)ccc5[nH]4)ccc3[nH]2)cc1OCC
growth percent (SRB; 10 µM, 48 h): 6.87%

C#C[C@@]1(O)[C@@H](CO)O[C@@H](n2cc(Br)c3c(N)ncnc32)[C@@H]1O
TGI (SRB; NCI-60 screen): 49.2 µM and 77 µM

O=C(Nc1nnc2n3c(nc(-c4ccc(Cl)cc4)c1-2)SCC3=O)c1ccccc1
cell growth (SRB; 10 µM, NCI60 single-dose screen; baseline: untreated): 104%

Cn1cncc1C1=CN(c2ncnc3[nH]cnc23)CCS1
TGI (melanoma cell line): 148 µM

CCOC(=O)CSc1nc(-c2ccc(Cl)cc2)c2c(NC(=O)c3ccccc3)nnc-2[nH]1
cell growth (SRB; 10 µM, NCI60 single-dose screen; baseline: untreated): 106%

CCCC(CCC)C(=O)OCc1cn(-c2c3ccccc3nc3ccccc23)nn1
growth percentage (NCI60 single-dose screen; 10 µM): 101%

Cc1cc(=O)[nH]n1-c1nc(-c2ccc(Cl)cc2)c2c(NC(=O)c3ccccc3)nnc-2[nH]1
cell growth (SRB; 10 µM, NCI60 single-dose screen; baseline: untreated): 98.2%

CCCN1CCN(c2ccc3nc(-c4ccc5nc(-c6cc(OC)ccc6OC)[nH]c5c4)[nH]c3c2)CC1
growth percent (SRB; 10 µM, 48 h): 110%

Cc1cc(-c2ccccc2)n(-c2nc(-c3ccc(Cl)cc3)c3c(NC(=O)c4ccccc4)nnc-3[nH]2)n1
cell growth (SRB; 10 µM, NCI60 single-dose screen; baseline: untreated): 98.8%

CN1CCN(c2ccc3[nH]c(-c4ccc5[nH]c(-c6ccc(C(F)(F)F)cc6)nc5c4)nc3c2)CC1
growth percent (SRB; 10 µM, 48 h): 87.2%

O=C1NC(c2ccccc2)(c2ccccc2)C(=O)N1Cc1cn(-c2cc3ccccc3oc2=O)nn1
growth percentage (NCI60 single-dose screen; 10 µM): 101%

CCN(CC)c1ccc(C=NNC(=O)CSc2nc3ccccc3c(=O)n2Cc2ccc(S(N)(=O)=O)cc2)c(O)c1
TGI (NCI five-dose screen): > 100 µM

CCCN1CCN(c2ccc3[nH]c(-c4ccc5[nH]c(-c6cc(OC)c(OC)c(OC)c6)nc5c4)nc3c2)CC1
growth percent (SRB; 10 µM, 48 h): 71.7%

Cc1cc(C)n(-c2nc(-c3ccc(Cl)cc3)c3c(NC(=O)c4ccccc4)nnc-3[nH]2)n1
cell growth (SRB; 10 µM, NCI60 single-dose screen; baseline: untreated): 85.2%

Some of these lines once more:
O=C1NC(c2ccccc2)(c2ccccc2)C(=O)N1Cc1cn(-c2cc3ccccc3oc2=O)nn1
growth percentage (NCI60 single-dose screen; 10 µM): 101%

Cc1cc(C)n(-c2nc(-c3ccc(Cl)cc3)c3c(NC(=O)c4ccccc4)nnc-3[nH]2)n1
cell growth (SRB; 10 µM, NCI60 single-dose screen; baseline: untreated): 85.2%

Cc1cc(=O)[nH]n1-c1nc(-c2ccc(Cl)cc2)c2c(NC(=O)c3ccccc3)nnc-2[nH]1
cell growth (SRB; 10 µM, NCI60 single-dose screen; baseline: untreated): 98.2%
